Measurements of several laboratories.
Lines come from different studies, so protocols differ. ± gives the spread as reported.
cas9: CRISPR-associated endonuclease Cas9/Csn1 (cas9, Streptococcus pyogenes serotype M1, UniProt Q99ZW2)
Sequence of UniProt Q99ZW2 (whole entry, looked up): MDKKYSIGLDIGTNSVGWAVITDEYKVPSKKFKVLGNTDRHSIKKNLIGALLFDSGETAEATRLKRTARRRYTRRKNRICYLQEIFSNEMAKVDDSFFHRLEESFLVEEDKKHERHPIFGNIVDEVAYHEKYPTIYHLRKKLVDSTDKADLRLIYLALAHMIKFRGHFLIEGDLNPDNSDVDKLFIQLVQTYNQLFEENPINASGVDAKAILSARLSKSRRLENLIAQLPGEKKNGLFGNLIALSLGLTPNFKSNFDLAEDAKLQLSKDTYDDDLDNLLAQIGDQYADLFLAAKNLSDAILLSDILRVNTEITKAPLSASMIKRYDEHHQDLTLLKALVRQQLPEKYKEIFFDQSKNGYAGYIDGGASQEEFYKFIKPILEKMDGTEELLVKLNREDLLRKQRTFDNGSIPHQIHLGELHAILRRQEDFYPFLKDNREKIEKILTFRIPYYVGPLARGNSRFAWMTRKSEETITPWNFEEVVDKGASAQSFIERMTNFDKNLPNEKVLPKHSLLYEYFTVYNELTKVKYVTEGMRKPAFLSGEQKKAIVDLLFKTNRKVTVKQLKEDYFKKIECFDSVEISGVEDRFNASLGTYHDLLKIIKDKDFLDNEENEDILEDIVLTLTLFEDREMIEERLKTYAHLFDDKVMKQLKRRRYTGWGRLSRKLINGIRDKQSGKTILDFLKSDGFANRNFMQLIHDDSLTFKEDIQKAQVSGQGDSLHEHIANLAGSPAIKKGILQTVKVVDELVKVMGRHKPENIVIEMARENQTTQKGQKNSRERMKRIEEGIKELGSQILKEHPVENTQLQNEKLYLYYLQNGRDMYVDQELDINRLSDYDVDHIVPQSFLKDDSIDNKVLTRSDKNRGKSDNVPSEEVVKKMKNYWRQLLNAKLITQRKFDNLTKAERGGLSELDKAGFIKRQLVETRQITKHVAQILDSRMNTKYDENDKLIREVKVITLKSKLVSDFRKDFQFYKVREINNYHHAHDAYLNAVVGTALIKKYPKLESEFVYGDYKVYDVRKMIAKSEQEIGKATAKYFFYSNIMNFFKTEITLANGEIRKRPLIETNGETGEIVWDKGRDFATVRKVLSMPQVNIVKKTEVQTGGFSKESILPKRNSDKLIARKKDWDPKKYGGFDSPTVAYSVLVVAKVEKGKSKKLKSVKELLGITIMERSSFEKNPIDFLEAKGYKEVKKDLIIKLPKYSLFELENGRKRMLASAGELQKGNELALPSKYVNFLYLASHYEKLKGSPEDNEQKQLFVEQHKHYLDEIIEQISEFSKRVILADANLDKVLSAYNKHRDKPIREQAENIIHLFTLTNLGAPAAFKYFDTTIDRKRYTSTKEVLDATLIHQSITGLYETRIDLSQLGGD
ACHE: Acetylcholinesterase (ACHE, Homo sapiens, UniProt P22303)
Sequence of UniProt P22303 (whole entry, looked up): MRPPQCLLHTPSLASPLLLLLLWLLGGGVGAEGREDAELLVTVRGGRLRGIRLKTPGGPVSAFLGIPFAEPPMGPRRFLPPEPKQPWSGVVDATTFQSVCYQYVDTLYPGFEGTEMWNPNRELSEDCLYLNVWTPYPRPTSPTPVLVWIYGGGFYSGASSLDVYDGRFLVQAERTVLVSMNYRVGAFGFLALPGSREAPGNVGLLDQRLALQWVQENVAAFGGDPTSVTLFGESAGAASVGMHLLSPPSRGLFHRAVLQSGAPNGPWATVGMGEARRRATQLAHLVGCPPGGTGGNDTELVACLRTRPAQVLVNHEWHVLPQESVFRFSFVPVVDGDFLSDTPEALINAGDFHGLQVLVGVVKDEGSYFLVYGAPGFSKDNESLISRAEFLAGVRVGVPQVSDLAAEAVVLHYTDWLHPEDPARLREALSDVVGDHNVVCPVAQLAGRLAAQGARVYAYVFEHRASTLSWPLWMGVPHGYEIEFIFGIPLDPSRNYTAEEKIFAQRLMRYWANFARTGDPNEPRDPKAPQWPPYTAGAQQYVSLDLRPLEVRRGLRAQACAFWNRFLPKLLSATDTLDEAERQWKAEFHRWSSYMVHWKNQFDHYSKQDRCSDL
Protein kinase 6: Protein kinase 6 (Plasmodium falciparum, UniProt Q8IDW1)
HLA class I histocompatibility antigen, B alpha chain: HLA class I histocompatibility antigen, B alpha chain (Homo sapiens, UniProt P01889)
Sequence of UniProt P18089 (whole entry, looked up): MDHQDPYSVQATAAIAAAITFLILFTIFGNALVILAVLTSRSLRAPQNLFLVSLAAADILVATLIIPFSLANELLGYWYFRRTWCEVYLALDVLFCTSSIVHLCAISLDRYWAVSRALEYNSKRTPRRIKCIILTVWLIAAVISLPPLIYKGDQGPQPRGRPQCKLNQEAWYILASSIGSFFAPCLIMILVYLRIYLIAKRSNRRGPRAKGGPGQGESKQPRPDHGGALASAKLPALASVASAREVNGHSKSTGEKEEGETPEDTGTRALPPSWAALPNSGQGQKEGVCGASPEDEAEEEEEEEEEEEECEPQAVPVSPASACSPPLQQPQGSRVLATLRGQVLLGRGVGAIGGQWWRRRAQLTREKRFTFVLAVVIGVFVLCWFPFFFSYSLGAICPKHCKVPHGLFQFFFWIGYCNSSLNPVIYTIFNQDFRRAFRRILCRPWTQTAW
Sequence of UniProt Q15046 (whole entry, looked up): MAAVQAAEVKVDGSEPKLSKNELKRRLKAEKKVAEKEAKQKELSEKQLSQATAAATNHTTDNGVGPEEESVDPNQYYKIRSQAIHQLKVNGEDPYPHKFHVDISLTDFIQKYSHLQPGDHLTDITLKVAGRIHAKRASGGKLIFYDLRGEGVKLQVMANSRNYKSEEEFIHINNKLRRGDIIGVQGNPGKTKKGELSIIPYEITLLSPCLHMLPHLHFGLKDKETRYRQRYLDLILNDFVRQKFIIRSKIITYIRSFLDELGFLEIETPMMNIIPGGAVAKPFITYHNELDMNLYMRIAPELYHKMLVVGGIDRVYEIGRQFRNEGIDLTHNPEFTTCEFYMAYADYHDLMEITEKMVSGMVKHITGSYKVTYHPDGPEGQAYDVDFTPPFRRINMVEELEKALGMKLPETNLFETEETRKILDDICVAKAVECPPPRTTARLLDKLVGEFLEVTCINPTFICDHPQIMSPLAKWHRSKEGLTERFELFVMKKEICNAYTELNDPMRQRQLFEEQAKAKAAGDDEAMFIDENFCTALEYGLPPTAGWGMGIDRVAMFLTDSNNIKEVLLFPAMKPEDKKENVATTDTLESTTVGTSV
Sequence of UniProt P31645 (whole entry, looked up): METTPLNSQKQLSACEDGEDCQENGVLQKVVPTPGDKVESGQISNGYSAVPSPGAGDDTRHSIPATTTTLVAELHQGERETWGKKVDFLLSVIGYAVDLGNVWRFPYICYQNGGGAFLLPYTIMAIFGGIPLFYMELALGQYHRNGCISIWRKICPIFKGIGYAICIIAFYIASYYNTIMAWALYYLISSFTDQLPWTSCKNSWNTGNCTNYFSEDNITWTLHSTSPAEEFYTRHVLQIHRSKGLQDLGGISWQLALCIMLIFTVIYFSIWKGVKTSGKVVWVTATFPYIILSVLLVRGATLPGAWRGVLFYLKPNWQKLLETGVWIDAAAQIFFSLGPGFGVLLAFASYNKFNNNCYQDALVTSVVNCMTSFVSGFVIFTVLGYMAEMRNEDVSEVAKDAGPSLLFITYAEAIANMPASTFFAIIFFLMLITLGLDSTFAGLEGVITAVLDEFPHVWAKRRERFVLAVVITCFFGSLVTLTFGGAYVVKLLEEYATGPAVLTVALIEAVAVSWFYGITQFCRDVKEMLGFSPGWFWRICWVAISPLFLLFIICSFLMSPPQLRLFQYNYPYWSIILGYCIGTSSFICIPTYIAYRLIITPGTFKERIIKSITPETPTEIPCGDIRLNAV
Sequence of UniProt Q96RI1 (whole entry, looked up): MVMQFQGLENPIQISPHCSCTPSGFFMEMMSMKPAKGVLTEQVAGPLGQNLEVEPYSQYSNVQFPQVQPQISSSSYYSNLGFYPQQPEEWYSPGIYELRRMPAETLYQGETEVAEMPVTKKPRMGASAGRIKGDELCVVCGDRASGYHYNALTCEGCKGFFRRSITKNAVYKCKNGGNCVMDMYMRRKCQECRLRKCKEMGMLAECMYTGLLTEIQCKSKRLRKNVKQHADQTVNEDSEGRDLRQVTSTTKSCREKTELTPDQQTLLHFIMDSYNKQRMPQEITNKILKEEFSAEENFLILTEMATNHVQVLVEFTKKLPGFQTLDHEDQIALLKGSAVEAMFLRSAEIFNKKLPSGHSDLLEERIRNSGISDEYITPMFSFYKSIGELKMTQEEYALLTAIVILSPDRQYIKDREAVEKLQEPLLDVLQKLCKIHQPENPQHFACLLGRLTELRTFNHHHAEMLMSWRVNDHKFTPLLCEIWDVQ
Sequence of UniProt P62593 (whole entry, looked up): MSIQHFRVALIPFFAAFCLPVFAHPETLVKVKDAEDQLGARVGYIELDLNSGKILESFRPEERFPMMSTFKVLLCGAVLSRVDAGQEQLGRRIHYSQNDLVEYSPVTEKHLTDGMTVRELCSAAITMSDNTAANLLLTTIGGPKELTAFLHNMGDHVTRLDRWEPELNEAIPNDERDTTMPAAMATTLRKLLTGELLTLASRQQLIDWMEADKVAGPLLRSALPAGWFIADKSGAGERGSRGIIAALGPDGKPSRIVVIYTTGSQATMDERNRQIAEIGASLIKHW
Sequence of UniProt Q9UGM1 (whole entry, looked up): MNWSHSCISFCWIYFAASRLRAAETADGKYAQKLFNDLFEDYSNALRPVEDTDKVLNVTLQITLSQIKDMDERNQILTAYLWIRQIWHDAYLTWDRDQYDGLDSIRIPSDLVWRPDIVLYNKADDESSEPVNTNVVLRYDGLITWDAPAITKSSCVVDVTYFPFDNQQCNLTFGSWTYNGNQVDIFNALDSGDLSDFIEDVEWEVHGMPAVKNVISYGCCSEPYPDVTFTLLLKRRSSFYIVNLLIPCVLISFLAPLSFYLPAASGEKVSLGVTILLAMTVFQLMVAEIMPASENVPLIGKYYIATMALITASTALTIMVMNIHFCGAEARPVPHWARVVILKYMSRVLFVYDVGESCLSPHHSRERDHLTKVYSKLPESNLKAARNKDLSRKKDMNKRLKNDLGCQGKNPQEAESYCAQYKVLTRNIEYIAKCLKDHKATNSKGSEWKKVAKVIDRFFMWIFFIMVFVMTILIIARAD

CCCC[C@@H](NC(=O)[C@@H](N)Cc1c(C)cc(O)cc1C)C(=O)NCC(=O)N[C@@H](Cc1ccc(F)cc1)C(=O)N(C)CCC[C@@]1(c2ccc(F)cc2)OCc2cc(C#N)ccc21
IC50 (OPRD1 (Homo sapiens, UniProt P41143)): 0.0017 µM

COc1cccc2c1C(=O)c1c(O)c3c(c(O)c1C2=O)C[C@@](O)(C(C)=O)C[C@@H]3O[C@H]1C[C@H](N)[C@H](O)[C@H](C)O1
IC50 (cas9; circular plasmid substrate; Streptococcus pyogenes): 50 to 100 µM

CCC(C(=O)Nc1cc(NC2COC2)ccc1C)n1cc(Br)cc2nc(SCc3ccc(F)cc3)nc1-2 (centres unmarked)
IC50 (CAPN1 (Homo sapiens, UniProt P07384); enzyme activity): > 100 µM

Clc1ccc2c(c1)C(N1CCNCC1)=Nc1ccccc1O2
IC50 (Neuronal acetylcholine receptor; alpha9/alpha10 (Homo sapiens, UniProt Q9GZZ6+Q9UGM1); inhibitor): 0.46 ± 0.11 µM

COc1ccccc1C1c2ccc(OS(=O)(=O)c3ccc(C)cc3)cc2Oc2nc3c(c(N)c21)CCCC3 (centres unmarked)
IC50 (ACHE; enzyme activity, inhibitor): 1.03 µM

CCCCCCCCCC(=O)CC(=O)N[C@H]1CCOC1=O
IC50 (expR (Pectobacterium carotovorum, UniProt Q4KS34)): 0.6 µM

CCN1CCN(Cc2ccc(Nc3nc4ccc(Oc5ccnc(NC(C)=O)c5)c5c4n3CCC5)cc2C(F)(F)F)CC1
IC50 (Protein kinase 6; enzyme activity, inhibitor): 0.7 ± 0.2 µM

O=C(O[C@@H]1Cc2c(O)cc(O)cc2O[C@@H]1c1cc(O)c(O)c(O)c1)c1cc(O)c(O)c(O)c1
IC50 (cas9; circular plasmid substrate; Streptococcus pyogenes): 10 to 20 µM

C[C@H]1CN(c2n[nH]c3nc(N[C@H]4CC[C@H](NS(=O)(=O)CCC(F)(F)F)CC4)ncc23)CCO1
IC50 (Lysine--tRNA ligase (KARS1, Homo sapiens, UniProt Q15046); biochemical): ≥ 20 µM

N[C@H](C(=O)O)[C@@H]1CC(Cl)=NO1
IC50 (GMP synthase (Trypanosoma brucei, UniProt Q57V01); inhibitor): 26 µM

CC(C)C[C@H](NC(=O)[C@@H](N)CCC(=O)O)C(=O)N1CCC[C@H]1C(=O)N[C@@H](CC(=O)O)C(=O)N[C@@H](CCC(=O)O)C(=O)N[C@@H](Cc1ccccc1)C(=O)N[C@H](C(=O)N[C@H](C(=O)N[C@H](C(=O)N[C@H](C(=O)N[C@H](C(=O)O)C(C)C)[C@@H](C)O)C(C)C)C(C)C)C(C)C
IC50 (HLA class I histocompatibility antigen, B alpha chain; peptide-MHC binding, radioligand competition binding): > 70 µM

COc1ncccc1-c1cnn2ccc(N3CCN(C(=O)OC(C)C)CC3)nc12
IC50 (HTR2A (Homo sapiens, UniProt P28223); liability screen): > 10 µM

COc1cccc2c1C(=O)c1c(O)c3c(c(O)c1C2=O)C[C@@](O)(C(=O)CO)C[C@@H]3O[C@H]1C[C@H](N)[C@@H](O)[C@H](C)O1
IC50 (cas9; circular plasmid substrate; Streptococcus pyogenes): 2 to 5 µM

CC(CCc1ccccc1)NC(C)C(O)c1ccc(O)cc1 (centres unmarked)
IC50 (ADRA2B (Homo sapiens, UniProt P18089); inhibitor): 0.733 µM

O=C(O)c1cccc(C(=O)O)n1
IC50 (dapA (Escherichia coli K-12, UniProt P0A6L2); enzyme activity, inhibitor; 30 °C): 17100 µM

O=C(N[C@H](CO)[C@H](O)c1ccc([N+](=O)[O-])cc1)C(Cl)Cl
IC50 (Gag polyprotein, nucleocapsid protein p7 (gag, Human immunodeficiency virus type 1 group M subtype B, UniProt P04591); NCp7-RNA binding, AlphaScreen; HIV-1; added: 25 nM NCp7, 12.5 nM RNA): 3.36 µM

CC(C)C[C@H](NC(=O)[C@H](CCC(N)=O)NC(=O)[C@H](Cc1ccccc1)NC(=O)[C@H](C)NC(=O)[C@H](CCCCN)NC(=O)[C@H](CC(=O)O)NC(=O)[C@H](CCC(=O)O)NC(=O)[C@H](CC(C)C)NC(=O)[C@@H](N)CO)C(=O)O
IC50 (HLA class I histocompatibility antigen, B alpha chain; peptide-MHC binding, radioligand competition binding): > 70 µM

COc1cc(Nc2ncc(F)c(Nc3ccc4c(n3)NC(=O)C(C)(C)O4)n2)cc(OC)c1OC
IC50 (PTPN12 (Homo sapiens, UniProt Q05209); PTP-PEST): > 10 µM

O=C(Nc1ccccc1-c1cn2c(CN3CCNCC3)csc2n1)c1cnc2ccccc2n1
IC50 (cas9; circular plasmid substrate; Streptococcus pyogenes): 50 to 100 µM

CCN1CCN(Cc2ccc(Nc3nc4ccc(Oc5ccnc(NC(C)=O)c5)c(C)c4n3C)cc2C(F)(F)F)CC1
IC50 (Protein kinase 6; enzyme activity, inhibitor): 0.3 ± 0.1 µM

CC(C)C[C@H](NC(=O)OCc1ccccc1)C(=O)N[C@@H](CC1CCNC1=O)C(O)S(=O)(=O)O (some centres unmarked)
IC50 (Procathepsin L (CTSL, Homo sapiens, UniProt P07711); enzyme activity, inhibitor): 0.00033 µM

CNC(C)Cc1ccc2n[se]nc2c1 (centres unmarked)
IC50 (SLC6A4 (Homo sapiens, UniProt P31645)): 19.1 ± 4.2 µM

Clc1ccc(-c2ccc(Cl)cc2Cl)cc1
IC50 (AHR (Homo sapiens, UniProt P35869); reporter gene, antagonist; AZ-AHR cells; 24 h, added: TCDD 4.5 nM): 17 µM

OCCN(CCO)c1nc(N2CCCCC2)c2nc(N(CCO)CCO)nc(N3CCCCC3)c2n1
IC50 (Beta-lactamase TEM (bla, Escherichia coli, UniProt P62593); inhibitor): > 30 µM

C/C=C/C/C=C/CCC(=O)[C@H]1O[C@H]1C(N)=O
IC50 (fabF (Escherichia coli, UniProt P0AAI5); acyl chain flipping, inhibitor, solvatochromic fluorescence): 9.87 µM

O=C(NCc1ccc(F)cc1)c1cccc(Nc2ccc(-c3ccccc3)nn2)c1
IC50 (Anoctamin-6 (ANO6, Homo sapiens, UniProt Q4KMQ2); anion channel activity, inhibitor, YFP fluorescence quenching; FRT cells expressing ANO6): 0.091 ± 0.011 µM

Nc1c2c(nc3c1C(c1ccc(Cl)c(Cl)c1)c1ccc(OCC(=O)c4ccc(Cl)cc4)cc1O3)CCCC2 (centres unmarked)
IC50 (ACHE; enzyme activity, inhibitor): 0.252 µM

O=C1c2ccccc2C(=O)C1C(=O)C(c1ccccc1)c1ccccc1
IC50 (Bile acid receptor (NR1H4, Homo sapiens, UniProt Q96RI1); receptor activity, inhibitor; cells): 11.3 ± 2.61 µM

CC(C)C[C@H](NC(=O)[C@H](CO)NC(=O)[C@H](CO)NC(=O)[C@H](Cc1ccccc1)NC(=O)[C@H](CCC(=O)O)NC(=O)[C@@H](N)CO)C(=O)N1CCC[C@H]1C(=O)N[C@@H](CO)C(=O)N[C@@H](Cc1ccc(O)cc1)C(=O)O
IC50 (HLA class I histocompatibility antigen, B alpha chain; peptide-MHC binding, radioligand competition binding): > 70 µM

Excerpt of the above:
O=C(O[C@@H]1Cc2c(O)cc(O)cc2O[C@@H]1c1cc(O)c(O)c(O)c1)c1cc(O)c(O)c(O)c1
IC50 (cas9; circular plasmid substrate; Streptococcus pyogenes): 10 to 20 µM

C[C@H]1CN(c2n[nH]c3nc(N[C@H]4CC[C@H](NS(=O)(=O)CCC(F)(F)F)CC4)ncc23)CCO1
IC50 (Lysine--tRNA ligase (KARS1, Homo sapiens, UniProt Q15046); biochemical): ≥ 20 µM
